Measurements collected from several papers.
Each numbered part is a random draw from the data of one study; scales do not carry over between parts. Values joined by “and” are separate records of one study, mostly repeats; a detail may differ.
Chain of UniProt P42336 (whole entry, unmodified, looked up): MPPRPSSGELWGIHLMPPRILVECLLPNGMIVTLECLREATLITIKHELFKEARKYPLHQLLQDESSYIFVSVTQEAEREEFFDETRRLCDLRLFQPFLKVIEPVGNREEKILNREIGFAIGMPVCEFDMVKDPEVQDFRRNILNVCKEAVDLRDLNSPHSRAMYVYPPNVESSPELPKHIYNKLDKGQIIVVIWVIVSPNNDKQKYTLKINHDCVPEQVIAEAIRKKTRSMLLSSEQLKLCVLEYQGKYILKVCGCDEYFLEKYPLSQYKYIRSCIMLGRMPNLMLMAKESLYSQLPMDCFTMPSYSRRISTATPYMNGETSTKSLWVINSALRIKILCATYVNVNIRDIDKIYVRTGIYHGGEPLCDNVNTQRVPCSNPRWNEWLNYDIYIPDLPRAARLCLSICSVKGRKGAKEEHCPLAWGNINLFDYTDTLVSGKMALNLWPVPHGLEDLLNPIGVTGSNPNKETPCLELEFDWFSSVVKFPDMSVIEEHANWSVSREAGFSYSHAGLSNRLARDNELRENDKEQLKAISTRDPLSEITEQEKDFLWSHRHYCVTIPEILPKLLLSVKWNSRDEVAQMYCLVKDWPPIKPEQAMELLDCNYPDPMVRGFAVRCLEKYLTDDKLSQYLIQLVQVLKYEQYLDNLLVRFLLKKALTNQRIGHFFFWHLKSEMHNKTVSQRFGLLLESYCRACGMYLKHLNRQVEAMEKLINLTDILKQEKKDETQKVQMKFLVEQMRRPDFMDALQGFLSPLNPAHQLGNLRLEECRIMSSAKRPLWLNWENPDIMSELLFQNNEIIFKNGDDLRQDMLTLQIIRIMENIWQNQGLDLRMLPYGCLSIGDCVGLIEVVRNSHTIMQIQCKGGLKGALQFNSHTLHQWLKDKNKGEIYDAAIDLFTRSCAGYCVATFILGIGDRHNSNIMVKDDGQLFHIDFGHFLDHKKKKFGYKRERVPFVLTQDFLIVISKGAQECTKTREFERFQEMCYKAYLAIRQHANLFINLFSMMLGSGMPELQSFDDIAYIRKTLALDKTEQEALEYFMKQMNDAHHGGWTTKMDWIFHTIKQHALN
Chain of UniProt P04049 (whole entry, looked up): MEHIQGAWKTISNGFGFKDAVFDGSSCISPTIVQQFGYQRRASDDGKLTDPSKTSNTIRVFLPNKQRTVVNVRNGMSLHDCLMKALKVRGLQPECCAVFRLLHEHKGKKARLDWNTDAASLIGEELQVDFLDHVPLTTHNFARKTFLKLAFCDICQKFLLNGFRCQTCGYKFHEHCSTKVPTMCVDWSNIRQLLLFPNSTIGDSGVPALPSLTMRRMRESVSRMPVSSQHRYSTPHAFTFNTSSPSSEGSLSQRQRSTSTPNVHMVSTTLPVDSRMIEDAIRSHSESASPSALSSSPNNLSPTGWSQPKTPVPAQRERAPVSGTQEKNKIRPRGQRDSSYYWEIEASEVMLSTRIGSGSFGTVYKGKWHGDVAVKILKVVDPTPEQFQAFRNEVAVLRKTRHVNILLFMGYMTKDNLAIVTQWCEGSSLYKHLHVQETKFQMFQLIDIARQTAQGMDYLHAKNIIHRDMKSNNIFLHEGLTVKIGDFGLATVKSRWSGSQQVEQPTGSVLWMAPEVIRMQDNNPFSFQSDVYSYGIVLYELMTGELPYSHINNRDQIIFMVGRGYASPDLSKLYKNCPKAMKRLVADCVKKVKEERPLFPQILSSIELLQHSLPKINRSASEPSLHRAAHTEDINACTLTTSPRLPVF
Chain of UniProt Q02750 (whole entry, looked up): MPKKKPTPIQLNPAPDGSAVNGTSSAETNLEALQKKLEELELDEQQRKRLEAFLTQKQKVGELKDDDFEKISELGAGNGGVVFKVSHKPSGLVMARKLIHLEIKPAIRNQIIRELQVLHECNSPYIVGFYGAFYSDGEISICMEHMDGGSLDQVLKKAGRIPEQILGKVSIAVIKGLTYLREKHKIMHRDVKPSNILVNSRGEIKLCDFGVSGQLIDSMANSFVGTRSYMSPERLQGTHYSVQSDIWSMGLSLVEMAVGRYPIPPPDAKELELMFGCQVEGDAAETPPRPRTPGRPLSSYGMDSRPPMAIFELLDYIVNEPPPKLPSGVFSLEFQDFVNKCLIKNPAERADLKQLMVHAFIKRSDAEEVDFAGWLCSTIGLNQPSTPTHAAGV

Sample 1 — concentration: 1 µM; measurement: remaining binding
SMILES: CC[C@@]1(c2cccc(C(F)(F)F)c2)C2=C(Nc3n[nH]cc31)[C@H](F)C(C)(C)CC2=O (single isomer, unassigned)
FER (Homo sapiens, UniProt P16591); binding, competition with immobilised ligand: 100%
PIK3CA (Homo sapiens, UniProt P42336); kinase binding, KINOMEscan; reference: DMSO control: 100%
CSNK2A1 (Homo sapiens, UniProt P68400); binding, competition with immobilised ligand: 100%
STK17A (Homo sapiens, UniProt Q9UEE5); binding, competition with immobilised ligand: 90%
RAF1 (Homo sapiens, UniProt P04049); kinase binding, KINOMEscan; reference: DMSO control: 100%
CHEK1 (Homo sapiens, UniProt O14757); binding, competition with immobilised ligand: 97%
MAPK3 (Homo sapiens, UniProt P27361); binding, competition with immobilised ligand: 88%
NLK (Homo sapiens, UniProt Q9UBE8); binding, competition with immobilised ligand: 95%
Tyrosine-protein kinase ABL1, non-phosphorylated (ABL1, Homo sapiens, UniProt P00519, F317L); kinase binding, KINOMEscan; reference: DMSO control: 100%
NTRK2 (Homo sapiens, UniProt Q16620); kinase binding, KINOMEscan; reference: DMSO control: 89%
Ribosomal protein S6 kinase alpha-3, C-terminal kinase domain (RPS6KA3, Homo sapiens, UniProt P51812); binding, competition with immobilised ligand: 55%
Tyrosine-protein kinase JAK1, JH2 (JAK1, Homo sapiens, UniProt P23458); binding, competition with immobilised ligand: 100%
ACVR1B (Homo sapiens, UniProt P36896); kinase binding, KINOMEscan; reference: DMSO control: 100%
PIKFYVE (Homo sapiens, UniProt Q9Y2I7); kinase binding, KINOMEscan; reference: DMSO control: 97%
Tyrosine-protein kinase ABL1, phosphorylated (ABL1, Homo sapiens, UniProt P00519, F317L); binding, competition with immobilised ligand: 79%
FLT3 (Homo sapiens, UniProt P36888); binding, competition with immobilised ligand: 100%
CSNK1D (Homo sapiens, UniProt P48730); kinase binding, KINOMEscan; reference: DMSO control: 93%

Sample 2 — observed: binding; technique: competition with immobilised ligand; concentration: 1 µM; measurement: remaining binding
SMILES: COc1cc(-c2nc3ccc(C(=O)NCCCN4CCN(c5cccc(C)c5C)CC4)cc3n2C2CCC2)cc(OC)c1OC
MAP3K9 (Homo sapiens, UniProt P80192): 69%
RPS6KB1 (Homo sapiens, UniProt P23443): 96%
PTK2B (Homo sapiens, UniProt Q14289): 100%
PIK3CA (Homo sapiens, UniProt P42336): 95%
MET (Homo sapiens, UniProt P08581, Y1235D): 100%
CHUK (Homo sapiens, UniProt O15111): 89%
LRRK2 (Homo sapiens, UniProt Q5S007, G2019S): 97%
PKN1 (Homo sapiens, UniProt Q16512): 82%
RET (Homo sapiens, UniProt P07949, V804L): 83%
CSNK1G2 (Homo sapiens, UniProt P78368): 72%
EPHB4 (Homo sapiens, UniProt P54760): 85%
EGFR (Homo sapiens, UniProt P00533, L858R): 68%
EGFR (Homo sapiens, UniProt P00533, T790M): 86%
PTK2 (Homo sapiens, UniProt Q05397): 96%
PIK3CA (Homo sapiens, UniProt P42336, E542K): 82%
RAF1 (Homo sapiens, UniProt P04049): 90%
STK17B (Homo sapiens, UniProt O94768): 100%
TNK1 (Homo sapiens, UniProt Q13470): 77%
IRAK4 (Homo sapiens, UniProt Q9NWZ3): 94%
Tyrosine-protein kinase ABL1, non-phosphorylated (ABL1, Homo sapiens, UniProt P00519, T315I): 91%
TLK1 (Homo sapiens, UniProt Q9UKI8): 97%
MAP2K1 (Homo sapiens, UniProt Q02750): 87%
FLT1 (Homo sapiens, UniProt P17948): 100%
DAPK1 (Homo sapiens, UniProt P53355): 97%

Sample 3 — observed: enzyme activity; mode: inhibitor; technique: Ub-TR-FRET; matrix: HECT domain; concentration: 0.04572 µM; direction: higher = more chain formation; measurement: ubiquitin chain formation AUC
Target: E3 ubiquitin-protein ligase NEDD4, HECT domain (Homo sapiens, UniProt P46934)
Chain of UniProt P46934 (whole entry, looked up): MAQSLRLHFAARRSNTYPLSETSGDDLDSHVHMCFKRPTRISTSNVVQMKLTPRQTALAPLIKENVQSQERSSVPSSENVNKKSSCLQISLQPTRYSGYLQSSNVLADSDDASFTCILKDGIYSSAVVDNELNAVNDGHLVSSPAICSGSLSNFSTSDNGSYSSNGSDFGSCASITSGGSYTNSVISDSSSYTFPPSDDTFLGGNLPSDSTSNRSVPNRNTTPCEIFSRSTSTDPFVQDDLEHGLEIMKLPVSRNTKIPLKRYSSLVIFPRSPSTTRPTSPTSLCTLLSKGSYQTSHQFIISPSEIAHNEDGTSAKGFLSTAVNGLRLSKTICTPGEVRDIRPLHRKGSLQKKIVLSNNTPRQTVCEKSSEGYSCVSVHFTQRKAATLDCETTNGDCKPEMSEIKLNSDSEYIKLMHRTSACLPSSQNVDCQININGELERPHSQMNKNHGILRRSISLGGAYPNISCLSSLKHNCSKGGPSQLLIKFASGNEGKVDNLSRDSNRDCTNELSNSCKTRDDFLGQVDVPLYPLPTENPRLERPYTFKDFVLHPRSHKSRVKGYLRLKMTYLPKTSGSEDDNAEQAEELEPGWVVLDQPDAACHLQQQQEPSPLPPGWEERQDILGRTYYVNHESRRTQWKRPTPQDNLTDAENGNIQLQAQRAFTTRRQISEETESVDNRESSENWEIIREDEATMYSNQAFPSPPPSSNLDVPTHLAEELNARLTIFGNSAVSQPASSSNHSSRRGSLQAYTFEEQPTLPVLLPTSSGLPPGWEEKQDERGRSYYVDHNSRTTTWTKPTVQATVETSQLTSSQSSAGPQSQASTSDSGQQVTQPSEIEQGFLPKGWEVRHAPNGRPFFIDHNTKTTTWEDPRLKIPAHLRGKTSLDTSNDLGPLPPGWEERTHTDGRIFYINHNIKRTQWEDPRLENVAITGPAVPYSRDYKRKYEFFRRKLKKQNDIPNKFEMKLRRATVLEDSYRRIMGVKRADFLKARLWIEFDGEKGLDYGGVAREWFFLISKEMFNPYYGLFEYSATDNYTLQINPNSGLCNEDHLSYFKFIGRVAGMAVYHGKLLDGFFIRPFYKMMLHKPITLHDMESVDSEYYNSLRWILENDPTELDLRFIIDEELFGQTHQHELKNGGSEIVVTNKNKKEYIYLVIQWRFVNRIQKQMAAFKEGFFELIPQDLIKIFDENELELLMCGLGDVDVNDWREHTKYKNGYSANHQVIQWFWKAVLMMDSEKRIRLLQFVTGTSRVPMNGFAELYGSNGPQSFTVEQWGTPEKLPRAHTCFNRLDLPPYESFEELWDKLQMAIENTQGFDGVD
CCOC(=O)/C=C/CN(CC)CCCCN1c2ccccc2CCc2ccc(Cl)cc21.O=C(O)/C=C\C(=O)O: 93200 a.u. and 93700 a.u. and 97100 a.u. and 101000 a.u. and 87900 a.u. and 96000 a.u.
CC(C)ONC(=O)/C=C/CNCCCCN1c2ccccc2CCc2ccc(Cl)cc21.O=C(O)/C=C\C(=O)O: 36300 a.u. and 38500 a.u. and 31700 a.u. and 36900 a.u. and 30300 a.u. and 31500 a.u.
CCOC(=O)/C=C/CN(CCCCN1c2ccccc2CCc2ccc(Cl)cc21)C(C)C.O=C(O)/C=C\C(=O)O: 84900 a.u. and 84600 a.u. and 84200 a.u. and 81100 a.u. and 85400 a.u. and 81700 a.u.
CCOC(=O)/C=C/CNCCCCN1c2cc(Cl)ccc2COc2ccccc21.O=C(O)/C=C\C(=O)O: 91100 a.u. and 85900 a.u. and 91500 a.u.
CNCCCN1c2ccccc2CCc2ccc(Cl)cc21: 147000 a.u.
CCOC(=O)/C=C/CNCCCCN1c2cc(Cl)ccc2CCc2cnn(C)c21.O=C(O)/C=C\C(=O)O: 51800 a.u. and 67200 a.u. and 54700 a.u. and 65300 a.u. and 67900 a.u. and 65000 a.u.
CCOC(=O)/C=C/CNCCCCN1c2ccccc2COc2ccc(Cl)cc21.O=C(O)/C=C\C(=O)O: 91800 a.u. and 82600 a.u. and 90300 a.u.
CNC(=O)/C=C/CNCCCN1c2ccccc2CCc2ccc(Cl)cc21.Cl: 131000 a.u. and 132000 a.u. and 128000 a.u.
CNC(=O)/C=C/CNCCCCN1c2ccccc2CCc2ccc(Cl)cc21.Cl: 68200 a.u. and 70900 a.u. and 87600 a.u. and 89600 a.u. and 85900 a.u. and 70500 a.u.
CCOC(=O)/C=C/CNCCCN1c2ccccc2CCc2ccc(Cl)cc21: 44900 a.u. and 45000 a.u. and 46500 a.u.

Sample 4 — observed: thermal unfolding; technique: differential scanning fluorimetry; concentration: 5.5 µM; direction: higher = more unfolded; measurement: SYPRO Orange fluorescence
Structure (SMILES): C[C@@H]1CN(c2ccc(-c3cc(C(=O)NCCOCCOCCOCCOCCOCCOCCNC(=O)/C=C/c4[nH]cc(C(=O)N[C@@H](CC(N)=O)c5ccc(F)c(Cl)c5)c4-c4ccc(Cl)cc4F)ccc3F)cc2NC(=O)c2ccc(F)cc2C(F)(F)F)C[C@H](C)N1C
WDR5: WD repeat-containing protein 5 (WDR5, Homo sapiens, UniProt P61964)
DCAF1: DDB1- and CUL4-associated factor 1 (DCAF1, Homo sapiens, UniProt Q9Y4B6)
Chain of UniProt Q9Y4B6 (whole entry, looked up): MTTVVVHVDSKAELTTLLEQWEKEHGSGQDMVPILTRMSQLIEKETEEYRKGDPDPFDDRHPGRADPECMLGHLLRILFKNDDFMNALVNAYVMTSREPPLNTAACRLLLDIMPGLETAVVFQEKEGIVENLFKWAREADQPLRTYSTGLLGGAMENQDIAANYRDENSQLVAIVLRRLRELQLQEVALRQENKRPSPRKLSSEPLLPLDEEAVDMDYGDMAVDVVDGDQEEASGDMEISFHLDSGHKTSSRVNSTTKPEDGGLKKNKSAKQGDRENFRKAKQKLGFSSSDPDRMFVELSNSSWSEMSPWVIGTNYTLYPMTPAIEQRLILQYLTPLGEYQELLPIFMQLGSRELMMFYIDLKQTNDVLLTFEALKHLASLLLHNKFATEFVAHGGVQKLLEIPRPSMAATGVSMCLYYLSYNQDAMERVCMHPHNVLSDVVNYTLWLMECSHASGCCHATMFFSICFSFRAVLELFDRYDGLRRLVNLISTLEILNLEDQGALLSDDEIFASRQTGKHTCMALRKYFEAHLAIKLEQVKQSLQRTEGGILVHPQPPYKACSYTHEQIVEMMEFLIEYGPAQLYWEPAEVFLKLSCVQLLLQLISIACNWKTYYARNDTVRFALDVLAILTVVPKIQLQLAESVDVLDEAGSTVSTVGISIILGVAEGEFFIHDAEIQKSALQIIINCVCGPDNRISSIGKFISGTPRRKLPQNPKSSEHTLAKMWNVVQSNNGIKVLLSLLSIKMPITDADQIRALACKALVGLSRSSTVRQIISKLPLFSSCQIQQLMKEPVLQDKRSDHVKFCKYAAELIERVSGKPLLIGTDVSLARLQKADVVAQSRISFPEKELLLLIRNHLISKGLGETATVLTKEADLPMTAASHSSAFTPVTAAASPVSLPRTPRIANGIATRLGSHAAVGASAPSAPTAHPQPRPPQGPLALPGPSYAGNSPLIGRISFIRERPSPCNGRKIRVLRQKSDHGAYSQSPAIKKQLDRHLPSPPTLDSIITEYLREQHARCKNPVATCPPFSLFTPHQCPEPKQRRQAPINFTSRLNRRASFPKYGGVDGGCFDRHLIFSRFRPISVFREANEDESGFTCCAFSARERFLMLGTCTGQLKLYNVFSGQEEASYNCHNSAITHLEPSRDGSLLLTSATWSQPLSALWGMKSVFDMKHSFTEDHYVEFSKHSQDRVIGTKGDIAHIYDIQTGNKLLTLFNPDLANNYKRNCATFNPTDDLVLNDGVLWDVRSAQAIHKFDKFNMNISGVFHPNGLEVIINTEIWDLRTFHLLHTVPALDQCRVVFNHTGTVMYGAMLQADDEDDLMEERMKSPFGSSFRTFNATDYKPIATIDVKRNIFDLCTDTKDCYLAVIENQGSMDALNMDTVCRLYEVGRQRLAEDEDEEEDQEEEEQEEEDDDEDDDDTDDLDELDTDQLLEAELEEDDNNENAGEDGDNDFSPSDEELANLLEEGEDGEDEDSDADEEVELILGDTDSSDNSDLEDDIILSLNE
WDR5; 37.4 °C: 13800 a.u.
DCAF1; 38 °C: 11000 a.u.
WDR5; 64.21 °C: 15700 a.u.
DCAF1; 77.01 °C: 42100 a.u.
WDR5; 88.01 °C: 57800 a.u.
DCAF1; 50.4 °C: 18400 a.u.
DCAF1; 29.6 °C: 8270 a.u.
WDR5; 59.81 °C: 15400 a.u.
DCAF1; 57.81 °C: 37700 a.u.
WDR5; 92.41 °C: 51200 a.u.
WDR5; 84.61 °C: 62700 a.u.

Repeated from above (sample 4):
WDR5; 88.01 °C: 57800 a.u.
DCAF1; 50.4 °C: 18400 a.u.
DCAF1; 29.6 °C: 8270 a.u.
WDR5; 59.81 °C: 15400 a.u.
DCAF1; 57.81 °C: 37700 a.u.
WDR5; 92.41 °C: 51200 a.u.
